Results of several laboratories.
Every numbered part comes from another study and shows a few of its results, in no order.
Chain of UniProt Q16832 (whole entry, looked up): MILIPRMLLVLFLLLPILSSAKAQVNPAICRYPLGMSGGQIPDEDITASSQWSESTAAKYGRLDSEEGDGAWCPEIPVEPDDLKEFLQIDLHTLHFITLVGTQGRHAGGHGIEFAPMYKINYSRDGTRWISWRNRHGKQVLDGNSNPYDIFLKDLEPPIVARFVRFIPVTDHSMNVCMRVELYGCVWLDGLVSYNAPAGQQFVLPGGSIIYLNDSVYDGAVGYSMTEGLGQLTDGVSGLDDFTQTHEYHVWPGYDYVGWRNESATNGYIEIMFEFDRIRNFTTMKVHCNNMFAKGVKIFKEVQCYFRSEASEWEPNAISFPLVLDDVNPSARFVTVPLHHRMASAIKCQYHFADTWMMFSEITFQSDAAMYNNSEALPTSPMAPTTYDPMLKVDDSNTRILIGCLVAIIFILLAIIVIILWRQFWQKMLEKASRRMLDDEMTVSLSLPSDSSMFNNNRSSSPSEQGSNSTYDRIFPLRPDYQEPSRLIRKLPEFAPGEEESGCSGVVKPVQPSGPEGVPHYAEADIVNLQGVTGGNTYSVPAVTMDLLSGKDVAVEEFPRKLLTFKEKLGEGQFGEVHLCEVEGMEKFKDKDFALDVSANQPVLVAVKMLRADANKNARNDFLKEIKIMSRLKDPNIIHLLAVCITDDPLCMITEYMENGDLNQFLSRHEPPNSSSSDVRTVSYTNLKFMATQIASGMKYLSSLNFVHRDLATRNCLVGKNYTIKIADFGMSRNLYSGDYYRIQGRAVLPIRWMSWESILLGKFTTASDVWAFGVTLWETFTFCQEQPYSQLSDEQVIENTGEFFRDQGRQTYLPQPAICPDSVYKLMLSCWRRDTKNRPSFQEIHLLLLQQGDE
Chain of UniProt P29597 (whole entry, looked up): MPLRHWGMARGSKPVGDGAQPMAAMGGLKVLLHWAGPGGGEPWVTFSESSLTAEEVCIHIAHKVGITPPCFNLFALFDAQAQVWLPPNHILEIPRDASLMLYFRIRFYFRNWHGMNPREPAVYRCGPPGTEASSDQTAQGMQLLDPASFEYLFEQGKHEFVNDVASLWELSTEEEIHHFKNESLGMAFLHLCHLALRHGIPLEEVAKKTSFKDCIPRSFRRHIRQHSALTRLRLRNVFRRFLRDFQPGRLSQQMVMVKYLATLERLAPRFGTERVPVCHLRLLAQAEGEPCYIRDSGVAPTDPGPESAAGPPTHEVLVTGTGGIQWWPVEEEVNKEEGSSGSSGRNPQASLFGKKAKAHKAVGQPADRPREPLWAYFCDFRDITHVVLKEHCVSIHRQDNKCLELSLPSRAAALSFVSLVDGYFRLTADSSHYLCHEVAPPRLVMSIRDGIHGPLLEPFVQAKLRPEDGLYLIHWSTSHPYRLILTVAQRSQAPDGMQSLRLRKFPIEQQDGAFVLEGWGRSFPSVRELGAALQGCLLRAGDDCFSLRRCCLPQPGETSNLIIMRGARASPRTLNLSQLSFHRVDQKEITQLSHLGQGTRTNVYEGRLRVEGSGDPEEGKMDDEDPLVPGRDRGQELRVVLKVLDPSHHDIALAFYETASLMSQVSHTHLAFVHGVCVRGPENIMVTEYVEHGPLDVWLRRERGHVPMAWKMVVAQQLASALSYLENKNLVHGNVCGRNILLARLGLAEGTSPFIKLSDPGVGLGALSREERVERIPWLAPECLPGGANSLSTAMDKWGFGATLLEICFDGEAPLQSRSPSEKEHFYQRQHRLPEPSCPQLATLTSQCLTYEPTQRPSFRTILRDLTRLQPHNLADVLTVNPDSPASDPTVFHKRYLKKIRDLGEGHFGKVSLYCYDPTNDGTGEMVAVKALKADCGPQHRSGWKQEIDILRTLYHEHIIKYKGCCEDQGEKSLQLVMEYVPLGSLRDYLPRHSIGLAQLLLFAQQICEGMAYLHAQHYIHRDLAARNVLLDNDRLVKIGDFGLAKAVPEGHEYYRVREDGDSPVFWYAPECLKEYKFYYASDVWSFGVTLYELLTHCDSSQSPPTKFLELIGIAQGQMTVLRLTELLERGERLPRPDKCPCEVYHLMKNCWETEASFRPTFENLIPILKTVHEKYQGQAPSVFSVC
Chain of UniProt Q92772 (whole entry, looked up): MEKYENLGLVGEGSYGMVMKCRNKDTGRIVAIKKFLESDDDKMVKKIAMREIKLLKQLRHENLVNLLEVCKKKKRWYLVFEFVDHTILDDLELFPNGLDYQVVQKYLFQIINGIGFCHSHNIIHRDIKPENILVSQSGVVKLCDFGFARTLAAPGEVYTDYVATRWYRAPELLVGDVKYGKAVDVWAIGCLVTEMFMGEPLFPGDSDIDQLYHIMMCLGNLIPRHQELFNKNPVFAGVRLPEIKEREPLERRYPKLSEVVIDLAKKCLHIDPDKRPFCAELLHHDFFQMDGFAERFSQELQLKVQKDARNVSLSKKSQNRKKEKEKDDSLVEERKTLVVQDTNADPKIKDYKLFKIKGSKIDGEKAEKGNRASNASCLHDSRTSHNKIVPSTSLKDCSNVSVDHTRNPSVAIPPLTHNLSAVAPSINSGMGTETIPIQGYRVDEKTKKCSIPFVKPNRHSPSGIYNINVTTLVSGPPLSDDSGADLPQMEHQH
Chain of UniProt Q07002 (whole entry, looked up): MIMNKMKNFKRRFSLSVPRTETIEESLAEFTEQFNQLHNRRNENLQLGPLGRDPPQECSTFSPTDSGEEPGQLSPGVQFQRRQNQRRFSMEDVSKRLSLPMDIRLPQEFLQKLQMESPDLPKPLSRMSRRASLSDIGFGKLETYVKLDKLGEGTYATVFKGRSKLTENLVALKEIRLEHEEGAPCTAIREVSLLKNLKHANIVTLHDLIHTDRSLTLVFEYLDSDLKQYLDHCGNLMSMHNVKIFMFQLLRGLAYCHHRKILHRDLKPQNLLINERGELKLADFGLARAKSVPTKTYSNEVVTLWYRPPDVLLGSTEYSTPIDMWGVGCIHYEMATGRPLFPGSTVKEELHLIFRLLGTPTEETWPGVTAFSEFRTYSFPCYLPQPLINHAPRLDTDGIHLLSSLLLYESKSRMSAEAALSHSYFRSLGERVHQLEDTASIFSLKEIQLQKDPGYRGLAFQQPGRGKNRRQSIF
Chain of UniProt Q9Y2U5 (whole entry, looked up): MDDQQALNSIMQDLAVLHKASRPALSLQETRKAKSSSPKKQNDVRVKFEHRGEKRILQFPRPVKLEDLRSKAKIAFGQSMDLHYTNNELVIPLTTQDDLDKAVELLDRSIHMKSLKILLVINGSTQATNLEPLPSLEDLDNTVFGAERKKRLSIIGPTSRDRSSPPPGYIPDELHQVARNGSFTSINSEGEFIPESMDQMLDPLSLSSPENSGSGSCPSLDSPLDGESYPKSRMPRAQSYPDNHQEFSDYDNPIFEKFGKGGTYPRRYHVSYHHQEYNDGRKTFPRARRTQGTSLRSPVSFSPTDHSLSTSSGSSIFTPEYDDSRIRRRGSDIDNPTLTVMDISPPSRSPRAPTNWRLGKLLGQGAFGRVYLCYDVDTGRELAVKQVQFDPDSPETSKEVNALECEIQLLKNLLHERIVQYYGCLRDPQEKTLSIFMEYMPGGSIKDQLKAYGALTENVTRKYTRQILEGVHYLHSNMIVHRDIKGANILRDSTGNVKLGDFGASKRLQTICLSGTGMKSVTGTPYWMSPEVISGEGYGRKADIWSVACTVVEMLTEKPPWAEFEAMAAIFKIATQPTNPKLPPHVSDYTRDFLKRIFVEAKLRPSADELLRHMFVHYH
Chain of UniProt P10721 (whole entry, unmodified, looked up): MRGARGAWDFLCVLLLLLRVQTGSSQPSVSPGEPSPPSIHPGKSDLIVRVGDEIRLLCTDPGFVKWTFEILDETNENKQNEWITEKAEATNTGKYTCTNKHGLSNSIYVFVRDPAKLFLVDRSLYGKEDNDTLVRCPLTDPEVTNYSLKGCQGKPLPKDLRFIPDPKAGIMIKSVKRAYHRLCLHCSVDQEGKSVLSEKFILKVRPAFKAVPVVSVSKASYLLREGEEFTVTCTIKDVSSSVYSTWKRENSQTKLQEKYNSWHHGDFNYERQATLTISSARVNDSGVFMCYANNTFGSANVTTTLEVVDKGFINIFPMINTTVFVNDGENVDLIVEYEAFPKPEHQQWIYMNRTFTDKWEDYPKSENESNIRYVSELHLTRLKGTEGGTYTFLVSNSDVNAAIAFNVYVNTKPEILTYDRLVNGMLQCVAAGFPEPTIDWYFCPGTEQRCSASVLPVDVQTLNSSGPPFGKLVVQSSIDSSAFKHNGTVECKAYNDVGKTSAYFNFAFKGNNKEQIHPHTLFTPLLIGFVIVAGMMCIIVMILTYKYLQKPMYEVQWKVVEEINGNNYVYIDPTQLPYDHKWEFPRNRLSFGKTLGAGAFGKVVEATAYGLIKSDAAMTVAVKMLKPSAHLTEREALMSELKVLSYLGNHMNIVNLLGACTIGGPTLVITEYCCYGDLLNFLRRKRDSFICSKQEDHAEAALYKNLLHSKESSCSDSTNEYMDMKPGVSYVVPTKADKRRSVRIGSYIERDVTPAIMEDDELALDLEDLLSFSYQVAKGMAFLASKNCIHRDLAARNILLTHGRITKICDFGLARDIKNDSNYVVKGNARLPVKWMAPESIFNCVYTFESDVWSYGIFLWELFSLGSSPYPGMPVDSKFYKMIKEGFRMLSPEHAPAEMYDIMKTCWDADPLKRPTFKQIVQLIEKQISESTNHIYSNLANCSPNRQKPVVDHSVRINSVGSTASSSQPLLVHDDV
Chain of UniProt Q13882 (whole entry, looked up): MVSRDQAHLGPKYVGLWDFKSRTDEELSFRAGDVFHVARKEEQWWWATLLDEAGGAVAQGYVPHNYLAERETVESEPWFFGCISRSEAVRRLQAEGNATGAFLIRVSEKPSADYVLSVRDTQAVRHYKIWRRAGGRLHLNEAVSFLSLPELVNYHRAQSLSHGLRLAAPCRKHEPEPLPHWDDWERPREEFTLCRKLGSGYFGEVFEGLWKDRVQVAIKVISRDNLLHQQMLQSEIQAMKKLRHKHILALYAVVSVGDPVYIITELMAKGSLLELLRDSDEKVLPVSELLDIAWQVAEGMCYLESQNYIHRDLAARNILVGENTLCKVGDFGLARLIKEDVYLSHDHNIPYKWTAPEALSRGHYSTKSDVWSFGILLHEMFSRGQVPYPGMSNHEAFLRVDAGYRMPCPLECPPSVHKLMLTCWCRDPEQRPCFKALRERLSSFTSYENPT

Sample 1
Species: human
Matrix: microsomes or S9
Concentration: 2 µM
Time: 0.5 h
Endpoint: remaining compound
COc1cnc(C(=O)N2CCCC23CCOC3)nc1 (centres unmarked): > 100%
N=C(N)Nc1ccc(OCCCCCOc2ccc(NC(=N)N)cc2)cc1: 55.7%
Cc1coc(C)c1C(=O)CC1(O)C(=O)Nc2cc(Cl)cc(Cl)c21 (centres unmarked): 88%
CN(C(=O)CN(c1ccc(Cl)c(Cl)c1)S(=O)(=O)c1ccccc1)C(CN1CCCC1)c1ccc(-c2cccnc2)cc1 (centres unmarked): 16.2%

Sample 2
Cell line: HaCaT
Concentration: 100 µM
Time: 36 h
Endpoint: viability
C[N+](C)(C)CCOP(=O)(O)OP(=O)([O-])OC[C@H]1O[C@@H](n2ccc(N)nc2=O)[C@H](O)[C@@H]1O: 82.1%
C[C@@H]1O[C@@H](OC[C@H]2O[C@@H](Oc3c(-c4ccc(OCCO)c(OCCO)c4)oc4cc(OCCO)cc(O)c4c3=O)[C@H](O)[C@@H](O)[C@@H]2O)[C@H](O)[C@H](O)[C@H]1O: 89.9%
CC(C)Cn1cnc2c(N)nc3ccccc3c21: 65.3%

Sample 3
Structure (SMILES): CO[C@@H](C)c1c(Nc2ccc([C@H](N(C)C(=O)C3CCS(=O)(=O)CC3)C(F)(F)F)cc2)cnc2cc(Cl)nn12
Read-out: cell-free assay
Method: competition with immobilised ligand
Concentration: 1 µM
Endpoint: remaining binding
Mast/stem cell growth factor receptor Kit (KIT, Homo sapiens, UniProt P10721, V559D/V654A): 92%
Mitogen-activated protein kinase kinase kinase 9 (MAP3K9, Homo sapiens, UniProt P80192): 100%
Cyclin-dependent kinase 18 (CDK18, Homo sapiens, UniProt Q07002): 93%
Discoidin domain-containing receptor 2 (DDR2, Homo sapiens, UniProt Q16832): 100%
Cyclin-dependent kinase-like 2 (CDKL2, Homo sapiens, UniProt Q92772): 90%
Phosphatidylinositol 4,5-bisphosphate 3-kinase catalytic subunit alpha isoform (PIK3CA, Homo sapiens, UniProt P42336, Q546K): 100%
Mitogen-activated protein kinase kinase kinase 2 (MAP3K2, Homo sapiens, UniProt Q9Y2U5): 100%
Tyrosine-protein kinase ABL1, non-phosphorylated (ABL1, Homo sapiens, UniProt P00519, T315I): 100%
Protein-tyrosine kinase 6 (PTK6, Homo sapiens, UniProt Q13882): 81%
Ribosomal protein S6 kinase alpha-6, N-terminal kinase domain (RPS6KA6, Homo sapiens, UniProt Q9UK32): 100%
Myosin light chain kinase (MYLK3, Homo sapiens, UniProt Q32MK0): 84%
Non-receptor tyrosine-protein kinase TYK2, JH1 (TYK2, Homo sapiens, UniProt P29597): 100%
Serine/threonine-protein kinase PLK4 (PLK4, Homo sapiens, UniProt O00444): 100%

Sample 4
SMILES: CC(=O)N[C@@H](Cc1c[nH]c2ccccc12)C(=O)N[C@@H](CCC(=O)C=[N+]=[N-])C(=O)OC(C)C
Dose: dose not given
Baseline: vehicle
Endpoint: log2 fold change
measured: UDP-N-acetylglucosamine/galactosamine; mouse, EL4 tumour-bearing, EL4 tumour: -0.265
measured: 2'-deoxyadenosine 3'-monophosphate; mouse, EL4 tumour, tumour: 1.14
measured: pyridoxamine phosphate; Mus musculus, EL4 tumour: -0.473

Mixed results
CC(C)n1cnc(-c2ccc(F)cc2)c1-c1ncc(C(=O)Nc2ccc(N3CCN(C)CC3)cc2)[nH]1  bile acids increased (IPF patients; 60 mg once daily, adverse event incidence): 0%
CC(C)(C)c1cnc(CSc2cnc(NC(=O)C3CCN(CCCCSc4cccc5c4C(=O)N(C4CCC(=O)NC4=O)C5=O)CC3)s2)o1 (centres unmarked)  viability (HH; CCK-8; 1 nM): 99.6%
C[n+]1ccccc1/C=N/O  inhibition (Sarcocystis neurona; parasite growth; 10 µM, secondary screen): -30.3%
